Results of several laboratories.
Protocols differ between the studies behind these lines. Values joined by “and” are separate records of one study, mostly repeats; a detail may differ. Numbers after ± are the reported error.
ALB: Albumin (ALB, Homo sapiens, UniProt P02768)
PIN1: Peptidyl-prolyl cis-trans isomerase NIMA-interacting 1 (PIN1, Homo sapiens, UniProt Q13526)
Sequence of UniProt Q13526 (whole entry, looked up): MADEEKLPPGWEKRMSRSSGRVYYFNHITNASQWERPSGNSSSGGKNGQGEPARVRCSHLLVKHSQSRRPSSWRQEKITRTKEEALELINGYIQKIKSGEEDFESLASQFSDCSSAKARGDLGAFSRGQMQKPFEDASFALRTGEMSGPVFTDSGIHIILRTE
Beta-lactamase CTX-M-27: Beta-lactamase CTX-M-27 (Escherichia coli, UniProt Q840M4)
Sequence of UniProt P69905 (whole entry, looked up): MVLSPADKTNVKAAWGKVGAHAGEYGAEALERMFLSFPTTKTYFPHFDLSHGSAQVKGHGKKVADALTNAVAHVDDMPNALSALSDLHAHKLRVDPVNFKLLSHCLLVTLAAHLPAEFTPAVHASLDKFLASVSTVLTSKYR
Sequence of UniProt Q9DC04 (whole entry, unmodified, looked up): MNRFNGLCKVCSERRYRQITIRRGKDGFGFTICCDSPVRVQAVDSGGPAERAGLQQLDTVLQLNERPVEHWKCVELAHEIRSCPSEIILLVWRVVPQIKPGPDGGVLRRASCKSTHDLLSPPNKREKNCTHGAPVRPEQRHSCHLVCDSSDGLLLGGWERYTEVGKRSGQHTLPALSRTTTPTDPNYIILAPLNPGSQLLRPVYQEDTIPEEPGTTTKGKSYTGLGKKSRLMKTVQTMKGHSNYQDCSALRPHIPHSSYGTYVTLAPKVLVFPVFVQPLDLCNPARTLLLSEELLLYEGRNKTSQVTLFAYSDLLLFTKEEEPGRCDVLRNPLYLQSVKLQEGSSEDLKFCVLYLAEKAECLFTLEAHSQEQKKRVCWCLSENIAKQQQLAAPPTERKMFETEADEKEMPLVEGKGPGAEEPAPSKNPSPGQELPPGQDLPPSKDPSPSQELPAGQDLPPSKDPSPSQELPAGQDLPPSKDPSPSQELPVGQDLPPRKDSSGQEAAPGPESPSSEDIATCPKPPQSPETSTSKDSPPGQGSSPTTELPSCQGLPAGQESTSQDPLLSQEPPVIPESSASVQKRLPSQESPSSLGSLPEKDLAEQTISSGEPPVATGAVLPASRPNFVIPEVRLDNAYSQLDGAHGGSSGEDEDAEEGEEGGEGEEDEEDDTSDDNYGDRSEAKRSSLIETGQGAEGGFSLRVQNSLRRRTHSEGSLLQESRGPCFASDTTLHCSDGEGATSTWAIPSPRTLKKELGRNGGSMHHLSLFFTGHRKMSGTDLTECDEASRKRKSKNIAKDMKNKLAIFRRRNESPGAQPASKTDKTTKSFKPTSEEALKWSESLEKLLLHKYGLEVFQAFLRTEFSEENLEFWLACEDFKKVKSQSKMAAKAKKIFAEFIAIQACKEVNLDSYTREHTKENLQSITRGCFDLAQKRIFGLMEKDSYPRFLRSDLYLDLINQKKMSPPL
Sequence of UniProt Q07741 (whole entry, looked up): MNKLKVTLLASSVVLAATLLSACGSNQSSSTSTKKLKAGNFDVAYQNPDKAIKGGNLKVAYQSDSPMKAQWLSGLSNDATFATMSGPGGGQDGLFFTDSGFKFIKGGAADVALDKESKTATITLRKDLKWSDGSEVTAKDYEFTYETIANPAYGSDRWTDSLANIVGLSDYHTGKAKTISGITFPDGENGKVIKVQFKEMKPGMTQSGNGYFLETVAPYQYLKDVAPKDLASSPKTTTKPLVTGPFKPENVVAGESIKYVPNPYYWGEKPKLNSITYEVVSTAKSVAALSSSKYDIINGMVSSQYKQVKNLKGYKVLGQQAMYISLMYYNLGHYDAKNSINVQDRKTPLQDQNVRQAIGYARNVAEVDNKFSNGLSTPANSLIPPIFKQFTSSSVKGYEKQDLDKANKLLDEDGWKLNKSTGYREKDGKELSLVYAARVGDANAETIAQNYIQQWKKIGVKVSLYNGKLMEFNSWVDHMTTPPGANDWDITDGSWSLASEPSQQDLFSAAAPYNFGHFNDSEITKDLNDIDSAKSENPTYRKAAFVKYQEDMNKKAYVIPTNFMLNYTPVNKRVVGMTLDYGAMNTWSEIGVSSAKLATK
Sequence of UniProt Q9NSY1 (whole entry, looked up): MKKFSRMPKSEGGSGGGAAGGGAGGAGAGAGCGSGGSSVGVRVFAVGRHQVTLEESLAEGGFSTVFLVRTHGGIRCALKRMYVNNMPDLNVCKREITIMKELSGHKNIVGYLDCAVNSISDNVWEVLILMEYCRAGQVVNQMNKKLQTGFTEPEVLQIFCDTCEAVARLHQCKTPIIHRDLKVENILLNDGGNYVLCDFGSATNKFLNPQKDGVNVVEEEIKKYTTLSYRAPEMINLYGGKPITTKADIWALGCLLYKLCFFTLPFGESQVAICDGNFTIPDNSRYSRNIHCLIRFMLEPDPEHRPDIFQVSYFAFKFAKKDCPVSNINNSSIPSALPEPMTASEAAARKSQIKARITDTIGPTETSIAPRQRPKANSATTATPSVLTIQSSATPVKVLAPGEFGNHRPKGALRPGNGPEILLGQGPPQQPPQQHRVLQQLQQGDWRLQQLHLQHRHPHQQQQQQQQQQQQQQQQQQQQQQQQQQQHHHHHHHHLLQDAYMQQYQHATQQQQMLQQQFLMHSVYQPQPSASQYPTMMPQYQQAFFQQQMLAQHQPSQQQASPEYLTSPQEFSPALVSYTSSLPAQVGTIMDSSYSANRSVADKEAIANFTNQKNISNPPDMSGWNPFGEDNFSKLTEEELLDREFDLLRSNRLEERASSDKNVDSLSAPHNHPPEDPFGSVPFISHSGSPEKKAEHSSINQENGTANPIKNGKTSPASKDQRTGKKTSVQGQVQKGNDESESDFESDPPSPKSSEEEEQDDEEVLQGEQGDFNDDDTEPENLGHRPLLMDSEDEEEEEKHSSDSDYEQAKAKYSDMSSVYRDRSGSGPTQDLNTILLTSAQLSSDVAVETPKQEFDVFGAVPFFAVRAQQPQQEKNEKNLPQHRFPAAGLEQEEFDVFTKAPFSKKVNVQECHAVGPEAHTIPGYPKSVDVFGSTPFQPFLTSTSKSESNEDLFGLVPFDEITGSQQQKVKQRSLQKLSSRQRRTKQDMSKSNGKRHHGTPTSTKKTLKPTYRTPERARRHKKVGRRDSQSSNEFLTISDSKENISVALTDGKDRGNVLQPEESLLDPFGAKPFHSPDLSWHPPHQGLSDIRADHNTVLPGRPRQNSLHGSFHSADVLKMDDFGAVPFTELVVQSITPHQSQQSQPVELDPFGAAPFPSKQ
Sequence of UniProt O15392 (whole entry, unmodified, looked up): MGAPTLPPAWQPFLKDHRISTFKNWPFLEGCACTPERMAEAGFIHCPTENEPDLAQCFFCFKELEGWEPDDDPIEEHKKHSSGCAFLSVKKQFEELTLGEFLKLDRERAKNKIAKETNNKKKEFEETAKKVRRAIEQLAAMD
Sequence of UniProt O60216 (whole entry, looked up): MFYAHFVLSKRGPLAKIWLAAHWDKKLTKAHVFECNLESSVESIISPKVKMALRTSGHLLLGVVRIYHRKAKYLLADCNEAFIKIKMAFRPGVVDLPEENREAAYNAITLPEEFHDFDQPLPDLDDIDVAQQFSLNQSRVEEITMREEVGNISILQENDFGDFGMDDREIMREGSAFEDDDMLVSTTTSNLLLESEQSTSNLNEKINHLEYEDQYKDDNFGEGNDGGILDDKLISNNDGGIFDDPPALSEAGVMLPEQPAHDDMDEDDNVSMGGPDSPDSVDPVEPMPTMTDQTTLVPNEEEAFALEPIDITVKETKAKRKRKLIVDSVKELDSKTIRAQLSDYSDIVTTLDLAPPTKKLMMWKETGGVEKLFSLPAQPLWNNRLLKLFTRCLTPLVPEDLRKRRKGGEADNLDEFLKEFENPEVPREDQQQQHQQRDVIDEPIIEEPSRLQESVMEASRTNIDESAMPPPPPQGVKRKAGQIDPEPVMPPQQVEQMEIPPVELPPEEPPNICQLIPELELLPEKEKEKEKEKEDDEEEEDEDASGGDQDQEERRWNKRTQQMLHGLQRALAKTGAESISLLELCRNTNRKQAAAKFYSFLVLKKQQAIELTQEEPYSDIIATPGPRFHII
Sequence of UniProt Q00987 (whole entry, looked up): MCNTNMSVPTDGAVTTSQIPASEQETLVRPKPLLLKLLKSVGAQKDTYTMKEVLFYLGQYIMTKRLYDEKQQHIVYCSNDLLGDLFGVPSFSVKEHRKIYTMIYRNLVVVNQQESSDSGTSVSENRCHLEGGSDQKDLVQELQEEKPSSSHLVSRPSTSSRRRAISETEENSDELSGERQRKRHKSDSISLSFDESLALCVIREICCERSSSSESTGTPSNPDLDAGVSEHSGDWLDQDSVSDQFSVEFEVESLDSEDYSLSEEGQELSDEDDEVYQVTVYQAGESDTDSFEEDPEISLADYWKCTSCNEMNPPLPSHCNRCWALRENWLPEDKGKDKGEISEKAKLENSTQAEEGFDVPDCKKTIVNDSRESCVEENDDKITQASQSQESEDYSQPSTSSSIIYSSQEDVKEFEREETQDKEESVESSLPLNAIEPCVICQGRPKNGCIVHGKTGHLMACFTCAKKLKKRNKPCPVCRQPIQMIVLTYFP
Sequence of UniProt B9K712 (whole entry, unmodified, looked up): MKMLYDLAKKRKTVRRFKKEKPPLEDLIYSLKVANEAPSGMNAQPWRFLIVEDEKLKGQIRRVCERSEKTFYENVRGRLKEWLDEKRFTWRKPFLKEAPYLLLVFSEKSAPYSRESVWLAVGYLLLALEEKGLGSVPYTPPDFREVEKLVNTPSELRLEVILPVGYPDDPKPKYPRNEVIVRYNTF

Compound	target	test	test system	conditions	Kd
N=C(N)NCCC[C@H](NC(=O)[C@H](Cc1ccccc1)NC(=O)[C@@H]1CCCN1C(=O)[C@H](CO)NC(=O)[C@H](Cc1ccccc1)NC(=O)CNC(=O)[C@@H]1CCCN1C(=O)[C@@H]1CCCN1C(=O)[C@@H](N)CCCNC(=N)N)C(=O)N[C@@H](CCCCNS(=O)(=O)c1ccc(C2=c3cc4c5c(c3Oc3c2cc2c6c3CCCN6CCC2)CCC[N+]=5CCC4)c(S(=O)(=O)[O-])c1)C(=O)O	Oligopeptide-binding protein OppA (oppA, Lactococcus lactis subsp. lactis, UniProt Q07741)	binding, fluorescence anisotropy	–	pH 6.5, 24 °C, added: dye-labelled peptide	16 ± 1 µM
COc1ccc(C[C@@H](NC(=O)Cc2ccccc2)C(=O)N[C@@H](Cc2ccccc2)C(=O)N[C@@H](CCC(N)=O)C(=O)N[C@@H](CC(N)=O)C(=O)N[C@@H](CCCNC(=N)N)C(=O)N2CCC[C@H]2C(=O)N[C@@H](CCCNC(=N)N)C(=O)N[C@@H](Cc2ccc(O)c(I)c2)C(N)=O)cc1	Vasopressin V1a receptor (Mesocricetus auratus, UniProt A0ABM2Y7A2)	saturation binding	hamster brain sections	–	0.000262 µM
CC(=O)CC(c1ccc(O)cc1)c1c(O)c2ccccc2oc1=O (centres unmarked)	ALB	binding, switchSENSE	–	pH 7.4, 1% DMSO	25.5 µM
COc1ccc(-c2cnc3[nH]cc(C#Cc4cccnc4)c3c2)cc1OC	BMP-2-inducible protein kinase (BMP2K, Homo sapiens, UniProt Q9NSY1)	binding	–	–	0.0038 µM
CC(C)[C@H](NC(=O)[C@H](CO)NC(=O)[C@@H](NC(=O)[C@@H](N)CC(=O)O)C(C)C)C(=O)N[C@@H](Cc1ccc(O)cc1)C(=O)N[C@@H](CC(=O)O)C(=O)N[C@@H](Cc1ccccc1)C(=O)N[C@@H](CCC(=O)O)C(=O)N[C@@H](CCC(=O)O)C(=O)N[C@@H](CCC(=O)O)C(=O)O	RAD21/STAG2 (Homo sapiens, UniProt O60216+Q8N3U4)	binding, isothermal titration calorimetry	–	pH 7.7, 25 °C	1.04 ± 0.2 µM
CC(C)C[C@H](NC(=O)[C@@H]1CSSC[C@@H]2NC(=O)[C@H](CC(N)=O)NC(=O)[C@@H](N)CSSC[C@H](NC(=O)[C@H](CC(C)C)NC(=O)[C@H](Cc3ccccc3)NC(=O)[C@H]([C@@H](C)O)NC(=O)[C@H](CCC(=O)O)NC(=O)[C@@H]3CCCN3C(=O)[C@H](C)NC(=O)[C@H](CCCCN)NC2=O)C(=O)N[C@@H](Cc2ccc(O)cc2)C(=O)N[C@@H](Cc2c[nH]c3ccccc23)C(=O)N[C@@H](CCCNC(=N)N)C(=O)N1)C(=O)N[C@@H](CCC(N)=O)C(=O)N[C@@H](Cc1c[nH]cn1)C(N)=O	Protein Mdm4, residues 24-108 (MDM4, Homo sapiens, UniProt O15151)	binding, SPR competition	–	synthetic MDMX 24-108, added: immobilized p53 peptide 15-29	0.0114 ± 0.0023 µM
Cc1cc(-c2ccc3c(c2)CCC3O)cc(C)c1O (centres unmarked)	Estrogen receptor beta (ESR2, Homo sapiens, UniProt Q92731)	binding, competitive radioligand binding	–	–	25 µM
Cc1ncc(C[n+]2csc(CCO)c2C)c(=O)[nH]1	nicotinamide riboside transporter PnuT (Shewanella woodyi, UniProt B1KPL9)	isothermal titration calorimetry	DDM	pH 8.0, 25 °C	129 µM and 130 µM
COc1cc(C=O)ccc1OCc1cccc(CO)n1	Hemoglobin subunit alpha, with beta chain (HBA1, Homo sapiens, UniProt P69905)	binding, cation-exchange HPLC-UV/Vis	–	kinetic Kd from koff/kon	550 µM
CC(=O)N[C@@H](CCC(N)=O)C(=O)N[C@H]1CSCc2cccc(c2)C[S+](C)CC[C@@H](C(=O)N[C@@H](Cc2ccc(O)cc2)C(=O)N[C@@H](Cc2ccc(O)cc2)C(=O)N[C@@H](CCCCN)C(=O)N[C@H](C(=O)O)C(C)C)NC(=O)[C@H](CC(N)=O)NC(=O)[C@H](C)NC(=O)[C@@H]2CCCN2C1=O (some centres unmarked)	Regulator of G-protein signaling 3, PDZ domain (Rgs3, Mus musculus, UniProt Q9DC04)	fluorescence polarization	–	1 h, pH 7.4, 25 °C, added: FAM-labelled peptide tracer	3.02 µM
CC(=O)N(CC(=O)N(C)[C@@H](C)C(=O)N(Cc1c[nH]c2cc(Cl)ccc12)[C@@H](C)C(=O)N(C)[C@@H](C)C(=O)N(CCC(C)(C)C)[C@@H](C)C(=O)N1CCNCC1)Cc1ccccc1	E3 ubiquitin-protein ligase Mdm2 (MDM2, Homo sapiens, UniProt Q00987)	binding, ITC	–	–	0.318 µM
COC(=O)[C@H](Cc1ccccc1)NC(=O)[C@@H]1CCCN1C(=O)[C@H](CCCCN)NC(=O)[C@H](C)NC(C)=O	PIN1	binding	–	pH 7.4	22.4 µM
O=C(O)C(O)Cc1c[nH]c2ccccc12 (centres unmarked)	txtE (Streptomyces scabiei, UniProt C9ZDC6)	binding	–	pH 8	45 µM and ~45 µM
COC(=O)[C@H](Cc1ccccc1)NC(=O)[C@@H]1CCCN1C(=O)[C@H](CCSC)NC(=O)[C@H](C)NC(C)=O	PIN1	binding	–	pH 7.4	14.1 µM
CC(C)C[C@@H]1NC(=O)[C@H](C)NC(=O)[C@H](C)NC(=O)[C@H](CC(C)C)NC(=O)[C@H](CCC(=O)O)NC(=O)[C@H](C)NC(=O)[C@H](CCC(=O)O)NC(=O)[C@H](CC(C)C)NC(=O)[C@H](C)NC(=O)[C@H](C)NC(=O)[C@H](CC(C)C)NC(=O)[C@H](CCC(=O)O)NC(=O)[C@H](C)NC(=O)[C@H](C)NC(=O)[C@@H](N)CSSC[C@@H](C(N)=O)NC(=O)[C@H](C)NC(=O)[C@H](C)NC(=O)[C@H](CCCCN)NC(=O)[C@H](CC(C)C)NC(=O)[C@H](C)NC(=O)[C@H](C)NC(=O)[C@H](CC(C)C)NC(=O)[C@H](CCCCN)NC(=O)[C@H](C)NC(=O)[C@H](CCCCN)NC(=O)[C@H](CC(C)C)NC(=O)[C@H](C)NC(=O)[C@H](C)NC(=O)[C@H](CC(C)C)NC(=O)[C@H](CCCCN)NC(=O)CNC(=O)[C@H](CCCNC(=N)N)NC(=O)[C@H](Cc2ccccc2)NC(=O)[C@H](CC(C)C)NC(=O)[C@H](CCC(=O)O)NC(=O)[C@H](C(C)C)NC(=O)CNC(=O)[C@H](Cc2ccccc2)NC(=O)[C@H](CC(N)=O)NC(=O)[C@H](C(C)C)NC(=O)CNC(=O)[C@H](CCC(=O)O)NC1=O	ALB	binding, SPR	–	–	0.59 µM
C[C@H](N)C(=O)N[C@@H](CCCNC(=N)N)C(=O)N[C@H](C(=O)N[C@@H](CCCCN)C(=O)N[C@@H](CCC(N)=O)C(=O)N[C@H](C(=O)N[C@@H](C)C(=O)N[C@@H](CCCNC(=N)N)C(=O)N[C@@H](CCCCN)C(=O)N[C@@H](CO)C(=O)N[C@H](C(=O)NCC(=O)O)[C@@H](C)O)[C@@H](C)O)[C@@H](C)OP(=O)(O)O	Baculoviral IAP repeat-containing protein 5 (BIRC5, Homo sapiens, UniProt O15392, H80R)	binding, ITC	–	pH 6.8	26.3 µM
O=C(Nc1cccc(-c2nn[nH]n2)c1)c1cc(-c2ccccn2)cc(C(F)(F)F)c1	Beta-lactamase CTX-M-27	surface plasmon resonance	–	25 °C	1.79 ± 0.05 µM
N[C@@H](Cc1ccc(O)c(I)c1)C(=O)O	Iodotyrosine deiodinase (IYD, Thermotoga neapolitana, UniProt B9K712, M41F)	FMN fluorescence quenching	–	25 °C, M41F variant	0.5 ± 0.1 µM
O=C(Nc1cccc(-c2nn[nH]n2)c1)c1cc(-c2ccoc2)cc(C(F)(F)F)c1	Beta-lactamase CTX-M-27	surface plasmon resonance	–	25 °C	3.28 ± 0.07 µM
CSCC[C@H](N)C(=O)N[C@@H](CC(=O)O)C(=O)N[C@@H](CO)C(=O)N[C@@H](Cc1ccccc1)C(=O)N[C@@H](CC(N)=O)C(=O)N[C@@H](Cc1ccc(O)cc1)C(=O)N[C@H](C(=O)N[C@H](C(=O)N1CCC[C@H]1C(=O)N[C@@H](CC(=O)O)C(=O)N[C@@H](Cc1ccc(O)cc1)C(=O)NCC(=O)N[C@@H](Cc1c[nH]cn1)C(=O)N[C@@H](Cc1ccc(O)cc1)C(=O)N[C@@H](CC(=O)O)C(=O)N[C@@H](CC(=O)O)C(=O)N[C@@H](CCCCN)C(=O)N[C@@H](CC(=O)O)C(=O)N[C@H](C(=O)N[C@@H](CC(C)C)C(=O)N[C@@H](CC(=O)O)C(=O)N[C@@H](CC(C)C)C(=O)N[C@@H](CC(N)=O)C(=O)N[C@H](C(=O)N1CCC[C@H]1C(=O)N[C@H](C(=O)N[C@@H](CC(=O)O)C(=O)N[C@@H](CCCCN)C(=O)O)C(C)C)[C@@H](C)O)[C@@H](C)O)[C@@H](C)O)[C@@H](C)O	Complement C5, C5a fragment (Homo sapiens, UniProt P01031)	circular dichroism titration	–	pH 7.4, 25 °C	~0.126 µM
